Published values gathered from unrelated publications.
“And” joins repeats or separate records; there may be more than shown. ± marks the error that the study gave.
Organism: Staphylococcus aureus

SMILES | assay | test system | conditions | scale | endpoint | result
CC1(C)S[C@@H]2[C@H](NC(=O)[C@H](N)c3ccc(O)cc3)C(=O)N2[C@H]1C(=O)O | – | CGMCC 1.9 | concentration not given, 18 h, 37 °C | – | inhibition zone diameter | 0 mm
C/C(=C\C(=O)OCCCCCCCCC(=O)O)C[C@@H]1OC[C@H](C[C@@H]2O[C@H]2[C@@H](C)[C@H](C)O)[C@@H](O)[C@H]1O | – | USA300, mouse, skin wound infection, wound tissue | dose not given, day 14 | – | decrease in bacterial count | 1.5 log10 units
Cc1ccc(C[C@H](NC(=O)[C@@H](Cc2ccccc2)NC(=O)[C@@H](Cc2c[nH]c3ccccc23)NC(=O)[C@@H](N)CCCN)C(=O)N[C@H](Cc2ccccc2)C(=O)N[C@H](CCCN)C(N)=O)cc1 | – | ATCC 33591, methicillin-resistant | – | – | IC50 | > 20 µg/mL
O=c1c2cc(Cl)ccc2[nH]c(=S)n1Cc1cccnc1 | – | – | – | – | MIC90 | > 100 µM
O=C(O)c1ccc(-n2cc(CNc3ccc(Br)c(C(F)(F)F)c3)c(-c3cccc(F)c3)n2)cc1 | – | ATCC 700699, MRSA | 4 × MIC | – | time to kill below detection | ≤ 10 h
C=C[C@]1(C)C[C@@H](OC(=O)CS[C@@H]2C[C@H]3CC[C@@H](C2)N3C)[C@]2(C)[C@H](C)CC[C@]3(CCC(=O)[C@H]32)[C@@H](C)[C@@H]1O | – | – | – | – | MIC50 | 0.0625 µg/mL
O=C(/C=C/c1ccc(O)c(O)c1)O[C@@H]1C[C@](O)(C(=O)O)C[C@@H](O)[C@H]1O | bacterial growth | ATCC 29213 | 24 h | – | IC50 | > 100 µM
Cn1nc(C2COC3(CCCCC3)O2)cc1-c1ccccc1 (stereo not drawn) | crystal violet staining | – | 500 µg/mL, 24 h | baseline: untreated | residual biofilm | 5 ± 1%
CN[C@H](CC(C)C)C(=O)N[C@H]1C(=O)N[C@@H](CC(N)=O)C(=O)N[C@H]2C(=O)N[C@H]3C(=O)N[C@H](C(=O)N[C@H](C(=O)O)c4cc(O)cc(O)c4-c4cc3ccc4O)[C@H](O)c3ccc(c(Cl)c3)Oc3cc2cc(c3O[C@@H]2O[C@H](CO)[C@@H](O)[C@H](O)[C@H]2O[C@H]2C[C@](C)(N)[C@H](O)[C@H](C)O2)Oc2ccc(cc2Cl)[C@H]1O | – | USA300 LAC, female ICR mice, wound infection, full-thickness wound | – | – | bacterial load | 6.06 log CFU/g and 5.63 log CFU/g and 6.92 log CFU/g and 7.15 log CFU/g and 6.07 log CFU/g
CC(=O)NC[C@H]1CN(c2ccc(N3CCOCC3)c(F)c2)C(=O)O1 | Calgary Biofilm Device | MRSA 1707 | 24 h | – | MBC | 31.3 µM
[Cl][Fe]([Cl])[Cl] | – | – | 24 h, 37 °C | – | MIC50 | > 1600 µM
CCCCCCCCCC(=O)N[C@@H](Cc1c[nH]c2ccccc12)C(=O)N[C@H](CC(N)=O)C(=O)N[C@@H](CC(=O)O)C(=O)N[C@@H]1C(=O)NCC(=O)N[C@@H](CCCN)C(=O)N[C@@H](CC(=O)O)C(=O)N[C@H](C)C(=O)N[C@@H](CC(=O)O)C(=O)NCC(=O)N[C@H](CO)C(=O)N[C@@H]([C@H](C)CC(=O)O)C(=O)N[C@@H](CC(=O)c2ccccc2N)C(=O)O[C@@H]1C | XTT | MRSA ATCC BAA-1556 | MIC, 24 h, pre-formed biofilm | – | biofilm reduction | ~33%
CN[C@H](CC(C)C)C(=O)N[C@H]1C(=O)N[C@@H](CC(N)=O)C(=O)N[C@H]2C(=O)N[C@H]3C(=O)N[C@H](C(=O)N[C@H](C(=O)O)c4cc(O)cc(O)c4-c4cc3ccc4O)[C@H](O)c3ccc(c(Cl)c3)Oc3cc2cc(c3O[C@@H]2O[C@H](CO)[C@@H](O)[C@H](O)[C@H]2O[C@H]2C[C@](C)(N)[C@H](O)[C@H](C)O2)Oc2ccc(cc2Cl)[C@H]1O | broth microdilution | methicillin-resistant isolates | – | – | MIC90 | 2 µg/mL
O=C(N[C@H](CO)[C@H](O)c1ccc([N+](=O)[O-])cc1)C(Cl)Cl | – | CGMCC 1.9 | concentration not given, 18 h, 37 °C | – | inhibition zone diameter | 19.5 mm
Cc1ccc(C[C@H](NC(=O)[C@@H](Cc2ccccc2)NC(=O)[C@@H](Cc2c[nH]c3ccccc23)NC(=O)[C@@H](N)CCCN)C(=O)N[C@H](Cc2ccccc2)C(=O)N[C@H](CCCCN)C(N)=O)cc1 | bacterial growth | ATCC 29213 | – | – | IC50 | > 20 µg/mL
O=C(O)c1ccc(-n2cc(CNc3cc(Br)cc(C(F)(F)F)c3)c(-c3ccc(F)c(F)c3)n2)cc1 | membrane permeabilisation, flow cytometry | ATCC 700699 | 1 x MIC, 30 min | – | PI-stained cells | 18%
CCn1cc(C(=O)O)c(=O)c2cc(F)c(N3CCNCC3)cc21 | broth microdilution | MRSA NCTC 12493 | – | – | MBC | 2 µM
NC[C@H]1O[C@H](O[C@H]2[C@H](O)[C@@H](O[C@H]3O[C@H](CO)[C@@H](O)[C@H](N)[C@H]3O)[C@H](N)C[C@@H]2N)[C@H](O)[C@@H](O)[C@@H]1O | – | ATCC 25923 | 8 µg per disc, 24 h, 37 °C | – | inhibition zone diameter | 14.2 mm
O=C(NCc1ccccc1)C1COC2(CCCCC2)O1 (stereo not drawn) | crystal violet staining | – | 500 µg/mL, 24 h | baseline: untreated | residual biofilm | 18 ± 5%
OC[C@H]1O[C@@H](Oc2cc3c(O)cc(O)cc3[o+]c2-c2ccc(O)cc2)[C@H](O)[C@@H](O)[C@@H]1O | bacterial growth | ATCC 29213 | 24 h | – | IC50 | 46.5 µM
C#CCCCCCCCCCCCC(O)CC(O)CO (stereo not drawn) | growth | ATCC 33591 methicillin-resistant | – | – | IC50 | 86.4 µg/mL
CN[C@H](CC(C)C)C(=O)N[C@H]1C(=O)N[C@@H](CC(N)=O)C(=O)N[C@H]2C(=O)N[C@H]3C(=O)N[C@H](C(=O)N[C@H](C(=O)O)c4cc(O)cc(O)c4-c4cc3ccc4O)[C@H](O)c3ccc(c(Cl)c3)Oc3cc2cc(c3O[C@@H]2O[C@H](CO)[C@@H](O)[C@H](O)[C@H]2O[C@H]2C[C@](C)(N)[C@H](O)[C@H](C)O2)Oc2ccc(cc2Cl)[C@H]1O | – | ATCC 25904 | 20 h | – | MBC | 1.95 µg/mL
O=c1c(O)c(-c2cc(O)c(O)c(O)c2)oc2cc(O)cc(O)c12 | bacterial growth | ATCC 29213 | 24 h | – | IC50 | > 100 µM
O=C1/C(=C/c2ccc3ccccc3c2O)NC(=S)N1c1ccccc1 | – | ATCC 6538 | concentration not given | – | inhibition zone diameter | 21 ± 0.18 mm

Excerpt of the above:
SMILES | assay | test system | conditions | scale | endpoint | result
CCn1cc(C(=O)O)c(=O)c2cc(F)c(N3CCNCC3)cc21 | broth microdilution | MRSA NCTC 12493 | – | – | MBC | 2 µM
NC[C@H]1O[C@H](O[C@H]2[C@H](O)[C@@H](O[C@H]3O[C@H](CO)[C@@H](O)[C@H](N)[C@H]3O)[C@H](N)C[C@@H]2N)[C@H](O)[C@@H](O)[C@@H]1O | – | ATCC 25923 | 8 µg per disc, 24 h, 37 °C | – | inhibition zone diameter | 14.2 mm
